Assay results gathered from unrelated publications.
Every numbered part comes from another study and shows a few of its results, in no order. Changes are numbered by the printed parent chain.

Series 1
Target: CCNF, cyclin fold, Cln2 fusion (human)
Method: yeast growth competition, sequencing
Medium: yeast
Notes: strong parent motif
Baseline: not given
Reading: higher = stronger binding
Starting sequence: DBF4B docking peptide (human); LGYLYLLLTQSLW
| Variant | normalised enrichment score |
| --- | --- |
| L1A | 2.36 |
| W13A | 1.57 |
| L12A | 1.84 |
| L7A | 2.38 |
| T9A | 2.55 |
| L8A | 2.11 |

Series 2
Target: ABI1, truncated, D143A, DHFR fusion (Arabidopsis thaliana)
Method: DHFR PCA, deep sequencing
Medium: yeast
Notes: methotrexate growth selection, single substitutions
Together with: (+)-ABA 0 µM
Baseline: wild-type fitted maximum
Reading: higher = stronger binding
Starting sequence: PYL1, truncated, DHFR fusion (Arabidopsis thaliana); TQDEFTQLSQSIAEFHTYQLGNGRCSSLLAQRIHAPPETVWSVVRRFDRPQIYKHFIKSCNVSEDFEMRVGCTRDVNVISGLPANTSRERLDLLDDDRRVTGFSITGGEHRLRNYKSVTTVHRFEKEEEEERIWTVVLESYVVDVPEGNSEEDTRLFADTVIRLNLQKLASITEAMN
| Variant | relative binding score |
| --- | --- |
| T160W | -2.2% |
| R45A | 15% |
| E38G | 0.537% |
| L29P | 2% |
| R111Q | 8.26% |
| R98S | -1.99% |
| G102V | 1.28% |
| V143F | -7.53% |
| I133G | 39.1% |
| T120F | -10.6% |
| F47A | 1.84% |
| N61H | 45.7% |
| V43T | 1.79% |
| S140H | 10.3% |
| Y53E | 0.259% |
| V161P | 4.02% |
| S104K | -2.77% |

Series 3
Target: Interferon regulatory factor 5, full length, phosphomimetic (IRF5, Homo sapiens, UniProt Q13568-2, residues 1-514, S451D/S453D/S456D/S462D)
Method: protein-binding microarray
Molecule type: double-stranded DNA, one strand shown
Medium: in vitro
Tested at: 940 nM top
Notes: 60-bp whole probe
Together with: salmon DNA 0.4 mg/ml
Baseline: random background probes
Reading: higher = stronger binding
Shared flanks, not repeated: GCCTAGCAC … GTCTTGATTCGCTTGACGCTGCTG
| Sequence | fitted relative affinity |
| --- | --- |
| TCAGATTTTGGTCTTTCACTGTGCTAG | 0.646 z-score |
| TTCTTTACCACATTCTCTGCGTGCTAG | 1.6 z-score |
| AACGGTTTCGACTTTCGGGACGTGCTA | 7.47 z-score |
| TCATGCTTTCTTTTATGACTGTGCTAG | 1.38 z-score |
| GACGGACTGGGGTTGCGGGACGTGCTA | -0.00133 z-score |
| GAATGTCTTCCCCTCTCTTTGTGCTAG | 0.615 z-score |
| GACGAACTGGGGTAGCGAGACGTGCTA | -0.0161 z-score |
| TTAGGTATCGGACCGGGTTAGTGCTAG | 3.4 z-score |
| TTAGATTCCGGTTTCGGTTAGTGCTAG | 9.1 z-score |
| TTAGGACTGGTCTATCGGTTAGTGCTA | -0.593 z-score |
| TTAGGTATCGACTTTCGTTTAGTGCTA | 5.85 z-score |
| GTAGGTTTCCTTCTCCTTTAGTGCTAG | 1.95 z-score |
| GTGATGTGAGGGGAGAGGGAGTGCTAG | 0.0281 z-score |
| TAAGGTATCGGTTTCGGTTAGTGCTAG | 11.3 z-score |
| GTAGGACTGCTTTTCCTTTAGTGCTAG | -0.372 z-score |
| TCAACAGTTTTATTTTAGACTGTGCTA | 0.694 z-score |
| TTAGGTCTCGGTCTCGGTAAGTGCTAG | 5.54 z-score |
| GACGGTATCCGTCTCGGGACGTGCTAG | 0.743 z-score |

Series 4
Target: RING finger protein unkempt homolog, zinc fingers 1-6, GST-SBP tag (UNK, Homo sapiens, UniProt Q9C0B0, residues 30-357)
Method: RNA Bind-n-Seq
Molecule type: RNA
Medium: in vitro
Tested at: not given
Notes: RNA with constant flanks, human-mouse chimeric sites, ends assumed
Baseline: input RNA pool
Reading: higher = stronger binding
Construct (chain): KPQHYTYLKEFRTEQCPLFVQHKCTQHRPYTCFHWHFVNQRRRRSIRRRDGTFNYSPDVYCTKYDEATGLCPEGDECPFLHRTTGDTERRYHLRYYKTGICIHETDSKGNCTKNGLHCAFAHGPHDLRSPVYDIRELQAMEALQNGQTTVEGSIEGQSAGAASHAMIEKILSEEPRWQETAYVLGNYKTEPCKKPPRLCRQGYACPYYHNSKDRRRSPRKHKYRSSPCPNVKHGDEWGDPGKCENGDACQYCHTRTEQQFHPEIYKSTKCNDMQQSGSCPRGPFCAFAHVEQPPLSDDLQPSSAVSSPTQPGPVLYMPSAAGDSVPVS
| Sequence | bound/input enrichment [ratio] |
| --- | --- |
| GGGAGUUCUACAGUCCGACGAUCAUAAAGGCCAUGUUGAGUGGUCCAGGUCAGUUUGCUGAGAAUGAAACCAACGAGGUCAAUUUUAGAGAGAUCCCCUCACAUGUGCUAUCAAAAGUGUGCAUGUAUUUUACCUACAAGGUCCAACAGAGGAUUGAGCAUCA | 0.184 |
| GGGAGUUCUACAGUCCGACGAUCGCGGCAGAAUCAUGGAGGACAUAAUGCAGCUCCCCAAAGCGCGCGUCAACGCCGGCAUGUUACCACAGUAUAUCGACCGGCCCGUGUGCUUCGUGGGGAAGCUGGAAAAGAUUCAUCCCACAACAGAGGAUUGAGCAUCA | 0.0785 |
| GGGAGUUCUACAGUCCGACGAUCCUGGCCUGGCCCUCCCCUCUAGUGACCUUCUCUGCAUUCACUGCUUCUGCAUCAGAUACUUUCAGCUGCAACUCCCUACUGGGUGGGGCACCCAUUUCAGGCAGAAGGUUUUGGUACCCUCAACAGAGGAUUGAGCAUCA | 0.566 |
| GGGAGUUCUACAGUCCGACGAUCUCCCAAAUCCAGCAGCUCCUUGAAAUAUUGAGACAAACACUCCACACACAGGGAAGGCGAUAACAUUGUACAUUGGUUUACAUUUUUUCCCCCUGUGUUUUCUAGGGGAGGUCAUAGUGCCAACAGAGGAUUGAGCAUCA | 0.271 |
| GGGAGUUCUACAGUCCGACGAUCUCAGAAGCUGUGCUGGGUCACUUUUCAUAUCCAGAUCCUUCCCAGUGGACAGAUGAAGAACUGGGAAUCCCUCCUGAUGACGAGGACUGACACUGUAAACUCUCUGGACGAGUAGGAGCACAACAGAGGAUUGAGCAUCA | 0.711 |
| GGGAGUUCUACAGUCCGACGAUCAAAGAGUGGAUAGAGUGUGCACACGGGAUCGGUGGGACCCGGGCGAAAAAGGAGUGCAAGAUAGAAUUCGAUGACUUCGAAGAGUGCUUGCUUCGGUACAAAACGAUGAGACGUGCACAUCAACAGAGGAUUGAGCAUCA | 0.254 |
| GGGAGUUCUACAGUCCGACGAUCAAAUCGUGUGUGUCCAAUAUUGAAAGUACUUUAUCUGCACUCCAGUAUGUAAGCAGUAUAGUAGUUUCUUUAGAGAAUAGGUCUGCCAUUGUAAAGUACAAUGCAAGCUUAGUCACUCCACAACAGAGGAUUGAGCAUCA | 0.945 |

Series 5
Target: HLF, bZIP domain (human)
Method: DHFR protein complementation
Medium: yeast
Notes: single substitutions, most at no-binding floor
Baseline: wild-type JUN-FOS pair
Reading: higher = stronger binding
Starting sequence: JUN, bZIP domain (human); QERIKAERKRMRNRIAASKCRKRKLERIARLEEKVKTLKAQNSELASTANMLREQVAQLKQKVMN; partner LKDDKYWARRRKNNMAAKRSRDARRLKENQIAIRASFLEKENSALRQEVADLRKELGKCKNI
| Variant | binding fitness |
| --- | --- |
| A57K | -1.45 natural log |
| K34A | -1.45 natural log |
| M51L | -1.42 natural log |
| I28F | -1.3 natural log |
| L45H | -1.5 natural log |
| Q55L | -1.38 natural log |
| L31R | -1.45 natural log |
| L31G | -1.51 natural log |
| R30V | -1.37 natural log |
| E44G | -1.4 natural log |
| Q41F | -1.43 natural log |
| E54T | -1.49 natural log |
| T37E | -1.44 natural log |
| M51R | -1.34 natural log |
| K39L | -1.36 natural log |
| R30L | -1.44 natural log |

Series 6
Target: Prothrombin, mature alpha-thrombin (F2, Homo sapiens, UniProt P00734)
Method: aptamer microarray, sandwich
Molecule type: DNA with 2'F-ANA
Medium: in vitro
Tested at: 200 nM
Notes: whole 15-mer aptamer, many near background
Together with: Cy3 exosite-II aptamer, 400 nM
Reading: higher = stronger binding
Sequence: GGTTGGTGTGGTTGG
| Modification | mean fluorescence intensity |
| --- | --- |
| 2'F-ANA at 1 2 6 7 8 12 13 14 15 | 70.4 a.u. |
| 2'F-ANA at 4 5 6 8 9 10 11 12 14 | 49.3 a.u. |
| 2'F-ANA at 2 5 8 12 13 14 | 45.9 a.u. |
| 2'F-ANA at 1 4 6 7 8 9 10 12 13 14 15 | 82.6 a.u. |
| 2'F-ANA at 2 3 4 8 9 11 13 | 439 a.u. |
| 2'F-ANA at 3 5 6 8 9 12 14 15 | 63.1 a.u. |
| 2'F-ANA at 1 2 5 10 | 46.8 a.u. |
| 2'F-ANA at 2 6 9 10 13 15 | 82.7 a.u. |
| 2'F-ANA at 1 2 5 7 10 14 15 | 47.1 a.u. |
| 2'F-ANA at 3 5 6 7 8 9 10 12 | 74 a.u. |
| 2'F-ANA at 1 2 3 4 5 8 10 11 12 13 14 15 | 58.1 a.u. |
| 2'F-ANA at 1 2 3 4 6 7 10 | 77.4 a.u. |
| 2'F-ANA at 1 2 3 5 9 10 | 52.1 a.u. |
| 2'F-ANA at 1 3 4 5 7 9 10 11 14 | 45.1 a.u. |
| 2'F-ANA at 3 5 6 8 11 13 14 | 56.2 a.u. |
| 2'F-ANA at 2 5 8 10 11 13 15 | 48.6 a.u. |
| 2'F-ANA at 3 9 10 12 14 15 | 360 a.u. |
| 2'F-ANA at 3 7 8 14 15 | 609 a.u. |
| 2'F-ANA at 1 3 5 6 7 8 9 10 12 13 15 | 52.3 a.u. |
| 2'F-ANA at 1 6 9 10 12 13 | 66.2 a.u. |
| 2'F-ANA at 1 2 3 4 5 6 7 8 9 11 13 15 | 66.2 a.u. |

For quick reference, copied from above (series 2):
| Variant | relative binding score |
| --- | --- |
| T120F | -10.6% |
| F47A | 1.84% |
| N61H | 45.7% |
| V43T | 1.79% |
| S140H | 10.3% |
| Y53E | 0.259% |
